Experimental data gathered from unrelated publications.
Protocols differ between the studies behind these lines. “And” joins repeats or separate records; there may be more than shown. ± gives the spread as reported.

SMILES	test	system	conditions	how to read	endpoint	result
CC[C@H](C)[C@@H]1NC(=O)[C@H](Cc2ccc(O)cc2)NC(=O)CCCSC[C@@H](C(=O)N(CC(=O)N[C@@H](CC(C)C)C(=O)NCC(N)=O)Cc2ccc(F)cc2)NC(=O)[C@H](CC(N)=O)NC(=O)[C@H](CCC(N)=O)NC1=O		healthy human females, plasma	intranasal, 400 µg single dose		Cmax	0.198 ng/mL
Cc1nc(N)nc2c1C(=O)N[C@@H](c1ccc(F)cc1-c1cccc(O[11CH3])n1)C2	ex vivo biodistribution	mice, MDA-MB-231 subcutaneous xenograft, stomach	60 min post-injection, baseline, vehicle pre-treatment		tracer uptake	1.6 ± 0.2 %ID
[123I]c1ccc2nc(-c3ccc(-n4ccnn4)nc3)cn2c1		male Wistar rat, lung	intravenous, 4 MBq, 24 h		tracer uptake	0.002 %ID/g
COCC1CN(C2CCN(c3cc(OC)c(Nc4ncc(Br)c(Nc5ccc6c(c5P(C)(C)=O)OCCO6)n4)cc3C)CC2)C1		EGFR-mutant NSCLC patients, plasma	oral, 240 mg single dose, geometric mean		AUC(0-t)	49900 ng·h/mL
CC[C@H](C)[C@H](NC(=O)[C@H](N)Cc1ccc(O)cc1)C(=O)N[C@H]1CSSC[C@@H](C(=O)N(C)[C@H](C(=O)N[C@@H](CCCCN)C(=O)N[C@@H](CCCCN)C(=O)N[C@@H](CCCCN)C(N)=O)[C@@H](C)CC)NC(=O)[C@H](CCCNC(=N)N)NC(=O)[C@H](Cc2c[nH]cn2)NC(=O)[C@H](C)NC(=O)CN(C)C(=O)[C@H](Cc2c[nH]c3ccccc23)NC(=O)[C@H](CC(=O)O)NC(=O)[C@H](CCC(N)=O)NC(=O)[C@H](Cc2cn(C)c3ccccc23)NC(=O)[C@H](C(C)C)NC1=O	SPR-based competition	cynomolgus monkey, vitreous	intravitreal, 500 µg single, 2160 h, mean of eyes		concentration	0.1 to 0.12 µM
C=CC(=O)Nc1cc(Nc2nccc(-c3c[nH]c4ccccc34)n2)c(OC)cc1N(C)CCN(C)C		human plasma	72 h, storage stability, low QC sample		recovery	50.3%
CN(O)C(=O)CCC(=O)NCCCN(CCCCN(CCCNC(=O)CCC(=O)N(C)O)C(=O)CCC(=O)N(C)O)C(=O)CCC(=O)N(C)O.[89Zr]		PBS	7 days, pH 7, 37 °C		intact compound	97.7 ± 0.8%
CC(C)Cc1ccc(C(C)C(=O)NC(CCCCNC(=O)CCOCCOCCOCCOCCOCCOCCNC(=O)CN2CCN(CC(=O)[O-])CCN(CC(=O)[O-])CCN(CC(=O)[O-])CC2)C(=O)Nc2cccc3c(C(=O)NCC(=O)N4CC(F)(F)C[C@H]4C#N)ccnc23)cc1.[68Ga+3] (stereo partly drawn)		human serum	120 min, 37 °C, 68Ga-labelled		radiochemical stability	98.67 ± 0.4%
CCCCN1C(=O)c2cccc3c(NCCCCCCCCCCN4CCOCC4)ccc(c23)C1=O		methanol			Stokes shift	95 nm
O=C1c2sc(-c3ccc(N4CCC(CO)CC4)nc3F)nc2CCN1c1cccnc1		CD1 mouse, plasma	i.v., dose not given, 0.25 h		concentration	58.8 ng/mL and 93.4 ng/mL and 57.3 ng/mL
COc1cccc(OC)c1-c1cc(C(=O)NC2(C(=O)O)C3CC4CC(C3)CC2C4)nn1-c1ccc(C(=O)N(C)CCOCCN(C)C(=O)[C@H](CCCCNC(=O)[C@H](CC(C)C)NC(=O)C2OC2C(=O)O)NC(=O)CN2CCN(CC(=O)[O-])CCN(CC(=O)[O-])CCN(CC(=O)[O-])CC2)cc1C(C)C.[177Lu+3] (mixture of isomers)		mouse HT-29 xenograft	4 h, biodistribution	reference: tumour over stomach	tumour-to-stomach ratio	5.69
COc1ccc2c(c1)CCn1c[n+]3c(c1-2)-c1ccc(OC)cc1CC3		female NSG mice, blood	6 mg/kg, day 20, 5 days per week		Hematocrit	43.1 ± 0.85%
CC(C)(C)NCC(SS(=O)(=O)O)c1ccccc1 (stereo not drawn)		Swiss Webster mice, Schistosoma mansoni-infected	600 mg/kg single dose on day 1 post-infection, perfusion day 44 post-infection		body weight	32.1 g
Cc1cc(-c2ccc(C(=O)[C@@H]3CCCC[C@H]3C(=O)Nc3cnn4c3C(=O)NCC4)cc2)[nH]n1		human, urine	oral, 200 mg, 12-24 h	reference: dose	recovery of radioactivity per interval	0.62%
C#CCCCC/C=C/C(=O)NC1(c2ccc(-c3nc4ccn5c(=O)[nH]nc5c4cc3-c3ccccc3)cc2)CCC1		microsomes, liver, mouse CD-1	1 µM, pH 7.4, 37 °C, phosphate buffer 100 mM, with: NADPH		first-order rate constant	-0.029 min⁻¹
CCCN(C)c1cc(C(F)(F)F)nc(SCCC(=O)NCc2ccco2)n1		Wistar rat, plasma	intraperitoneal, 25 mg/kg, 2 h post-dose	reference: vehicle control	plasma LDH	no effect
Cn1cnc([N+](=O)[O-])c1Sc1ccccc1C(=O)NCCC(N)=O	LC-MS/MS	CD-1 mouse, CD-1 mouse blood	1 µM, 30 min		remaining compound	55.7%
O=C(Nc1cnccc1-c1ccc([18F])nc1)c1ccnc(NC(=O)C2CC2)c1		mice, transgenic, GSK-3β, early-stage, feces	intravenous, dose not given, 120 min		SUV	8.82
COc1ccc(C(N)=O)cn1		Han Wistar rats, male, plasma	oral, 30 mg/kg, 0.25 h		plasma concentration	77.4 µM
Nc1ncnc2[nH]c(/C=C/c3ccc(F)cc3)nc12	HPLC	solution	after 1 h light exposure		purity	100%
N#C[C@@H]1CC(F)(F)CN1C(=O)CNC(=O)c1ccnc2c(NC(=O)[C@@H](N)CCCCNC(=O)CCOCCOCCOCCOCCOCCOCCNC(=O)CN3CCN(CC(=O)[O-])CCN(CC(=O)[O-])CCN(CC(=O)[O-])CC3)cccc12.[177Lu+3]		PBS	24 h, 37 °C, 177Lu-labelled		radiochemical stability	98.7 ± 1.2%

SMILES	test	system	conditions	how to read	endpoint	result
CC(C)[C@H](NC(=O)[C@H](Cc1c[nH]c2ccccc12)NC(=O)[C@H](CCCNC(=N)N)NC(=O)[C@H](CCCNC(=N)N)NC(=O)[C@@H](NC(=O)[C@@H](NC(=O)[C@H](CCCNC(=N)N)NC(=O)[C@@H](NC(=O)[C@@H](NC(=O)[C@H](CCCNC(=N)N)NC(=O)[C@H](CCCNC(=N)N)NC(=O)[C@@H](NC(=O)[C@H](Cc1c[nH]c2ccccc12)NC(=O)[C@H](CCCNC(=N)N)NC(=O)[C@H](CCCNC(=N)N)NC(=O)[C@@H](NC(=O)[C@H](CCCNC(=N)N)NC(=O)[C@H](CCCNC(=N)N)NC(=O)[C@@H](NC(=O)[C@H](Cc1c[nH]c2ccccc12)NC(=O)[C@H](CCCNC(=N)N)NC(=O)[C@@H](N)CCCNC(=N)N)C(C)C)C(C)C)C(C)C)C(C)C)C(C)C)C(C)C)C(C)C)C(=O)N[C@@H](CCCNC(=N)N)C(=O)N[C@@H](CCCNC(=N)N)C(=O)O		CD1 mouse, urine	intravenous, 15 mg/kg, 16 h, [14C]-labelled compound		sodium	< 100 mEq/L
C=C(NC(=O)c1csc(-c2nc3c(cc2O)-c2nc(cs2)C(=O)NC(C(C)O)C(=O)NC(=C(C)OC)c2nc(cs2)C(=O)NC2c4nc(cs4)C(=O)NC(COC(=O)c4c5c6c(cccc6n4O)COC(=O)C(OC4CC(C)(O)C(N(C)C)C(C)O4)C2OC5)c2nc-3cs2)n1)C(N)=O (stereo not drawn)		Sprague-Dawley rat, both sexes, plasma	intravenous infusion, 18 mg/kg single dose		clearance	55.5 mL/min/kg
N#C[C@@H]1CC(F)(F)CN1C(=O)CNC(=O)c1ccnc2c(NC(=O)CCOCCOCCOCCOCCOCCOCCNC(=O)C(CCCCNC(=O)CN3CCN(CC(=O)[O-])CCN(CC(=O)[O-])CCN(CC(=O)[O-])CC3)NC(=O)CCCc3ccc(I)cc3)cccc12.[68Ga+3] (stereo partly drawn)		PBS	30 min, 37 °C, 68Ga-labelled		radiochemical stability	99.32 ± 0.7%
O=C([O-])CN1CCN(CC(=O)[O-])CCN(CC(CCCc2ccccc2[N+](=O)[O-])N(CC(=O)[O-])CC(=O)[O-])CC1.[90Y+3] (stereo not drawn)	HPLC	human serum	0 h, pH 7, 37 °C		intact radiolabelled complex	100%
CC(C)C[C@H](NC(=O)[C@H](CCCN)NC(=O)CNC(=O)[C@@H](NC(=O)[C@H](C)NC(=O)[C@@H]1CSCSC[C@H](NC(=O)CC[C@H](N)C(=O)O)C(=O)N[C@@H](CC(N)=O)C(=O)N[C@@H]([C@@H](C)O)C(=O)N[C@@H](C)C(=O)N[C@@H]([C@@H](C)O)C(=O)N1)[C@@H](C)O)C(=O)N[C@@H](C)C(=O)N[C@@H](CCC(=O)O)C(=O)N[C@@](C)(Cc1ccccc1)C(=O)N[C@@H](CC(C)C)C(=O)N[C@H](C(=O)N[C@@H](CCCNC(=N)N)C(=O)N[C@@H](CO)C(=O)N[C@@H](CO)C(=O)N[C@@H](CC(N)=O)C(=O)N(C)[C@@H](CC(N)=O)C(=O)N[C@@H](Cc1ccccc1)C(=O)NCC(=O)N1CCC[C@H]1C(=O)N[C@@H](CCCCNC(=O)CC[C@H](NC(=O)CC[C@H](NC(=O)CCCCCCCCCCCCCCCCCCC(=O)O)C(=O)O)C(=O)O)C(=O)N[C@@H](CC(C)C)C(=O)N1CCC[C@H]1C(=O)N1CCC[C@H]1C(=O)N[C@H](C(=O)N[C@@H](CCC(=O)O)C(=O)N[C@H](C(=O)NCC(=O)N[C@@H](CO)C(=O)N[C@@H](CC(N)=O)C(=O)N[C@H](C(=O)N[C@@H](Cc1ccc(O)cc1)C(N)=O)[C@@H](C)O)C(C)C)[C@@H](C)O)C(C)C	conditioned taste avoidance	lean male Sprague-Dawley rat	subcutaneous, 72 h		ED50	8.9 nmol/kg
COc1cc(N2CCN(C(=O)C3CCCN3)CC2)ccc1Nc1ncc(Cl)c(Nc2ccccc2P(C)(C)=O)n1 (stereo not drawn)		nude mice, NCI-H3122 xenograft	intraperitoneal, 10 mg/kg every other day, day 16		body weight	27.8 g and 24.9 g and 23.2 g and 28.1 g and 25.2 g
COc1cccc(OC)c1-c1cc(C(=O)NC2(C(=O)O)C3CC4CC(C3)CC2C4)nn1-c1ccc(C(=O)N(C)CCCN(C)C(=O)[C@H](CCCCNC(=O)[C@H](CC(C)C)NC(=O)C2OC2C(=O)O)NC(=O)CN2CCN(CC(=O)[O-])CCN(CC(=O)[O-])CCN(CC(=O)[O-])CC2)cc1C(C)C.[177Lu+3] (mixture of isomers)		mouse HT-29 xenograft, small intestine	168 h post injection, biodistribution		tissue uptake	0.039 %ID/g
C=CC(=O)Nc1cc(Nc2nccc(-c3cn(C)c4ccccc34)n2)c(OC)cc1N(C)CCNC	storage stability	human dried blood spots	5 h, -80 °C, low QC level		recovery	98.8%
O=C1c2sc(-c3ccc(N4CCC(F)C4)nc3F)nc2CCN1c1cccnc1 (stereo not drawn)		CD1 mouse, plasma	i.v., dose not given, 0.083 h		concentration	230 ng/mL and 399 ng/mL and 269 ng/mL
CC(C)(O)c1ncc([S@](N)(=O)=NC(=O)Nc2c3c(cc4c2CCC4)CCC3)s1	item: general and administration-site disorders	healthy human volunteers	oral, 200 mg once daily, 14 days, spray-dried dispersion		subjects with adverse events	14%
CCCCN1C(=O)c2cccc3c(NCCCCCN4CCOCC4)ccc(c23)C1=O		methanol			Stokes shift	91 nm
C/C(N)=N/C(=N\S(=O)(=O)c1ccc(C(F)(F)F)cc1)N1C[C@H](c2ccccc2)C(c2ccc(Cl)cc2)=N1		Beagle dog, plasma	oral, 24 mg/kg, observed value		Tmax	2 h
CC1(C)C(/C=C/C2=C(Cl)C(=C/C=C3/N(CCCCCC(=O)O)c4ccccc4C3(C)C)/C[N+](C)(C)C2)=[N+](CCCCCC(=O)O)c2ccccc21		water			Stokes shift	22 nm
CCCCN1C(=O)c2cccc3c(NCCN4CCOCC4)ccc(c23)C1=O		DMSO			Stokes shift	90 nm
O=C(Nc1cnccc1-c1ccc([18F])cc1)c1ccnc(NC(=O)C2CC2)c1	PET imaging	FVB/NJ mice, both sexes, brain	intravenous, 30 min post-injection, P-gp inhibited, with: tariquidar 15 mg/kg iv, 2 h before		SUV	0.4
CCCCN1C(=O)c2cccc3c(NCCCCCCN4CCOCC4)ccc(c23)C1=O		dichloromethane			Stokes shift	90 nm
CN1CCC[C@]1(C)/C=C/S(=O)(=O)NC(=O)Nc1c2c(cc3c1CCC3)CCC2	item: neutrophil count decreased, possibly related	human	oral, 50 mg twice daily, 14 days, multiple ascending dose		subjects with adverse event	0%
[2H]C([2H])([18F])Oc1cc(C(=O)OCC2CCN(CCCC)CC2)ccc1N		rhesus monkey, arterial plasma	iv, 3.02 min		parent radioligand fraction	60.5%
CN(Cc1cc(C2CC2)on1)C(=O)c1cccc(-c2ccc(F)cc2)c1		male ICR/CD-1 mouse, liver microsomes	2 µM, 5 min, pH 7.5, without ABT		remaining compound	64.5%
CCCCN1C(=O)c2cccc3c(NCCCN4CCOCC4)ccc(c23)C1=O		methanol			Stokes shift	95 nm
C=CC(=O)N1CCC[C@@H](c2ccc(C(N)=O)c3[nH]ccc23)C1		mouse, TMD8 tumour-bearing, plasma	15 mg/kg twice daily, 12 h		trough concentration	0.391 ng/mL

For quick reference, copied from above:
SMILES	test	system	conditions	how to read	endpoint	result
CN(Cc1cc(C2CC2)on1)C(=O)c1cccc(-c2ccc(F)cc2)c1		male ICR/CD-1 mouse, liver microsomes	2 µM, 5 min, pH 7.5, without ABT		remaining compound	64.5%
C=CC(=O)N1CCC[C@@H](c2ccc(C(N)=O)c3[nH]ccc23)C1		mouse, TMD8 tumour-bearing, plasma	15 mg/kg twice daily, 12 h		trough concentration	0.391 ng/mL
Cn1cnc([N+](=O)[O-])c1Sc1ccccc1C(=O)NCCC(N)=O	LC-MS/MS	CD-1 mouse, CD-1 mouse blood	1 µM, 30 min		remaining compound	55.7%
CC1(C)C(/C=C/C2=C(Cl)C(=C/C=C3/N(CCCCCC(=O)O)c4ccccc4C3(C)C)/C[N+](C)(C)C2)=[N+](CCCCCC(=O)O)c2ccccc21		water			Stokes shift	22 nm
CCCCN1C(=O)c2cccc3c(NCCCCCN4CCOCC4)ccc(c23)C1=O		methanol			Stokes shift	91 nm
